Results of several laboratories.
Each line is one published result; not all experiments were run side by side. Numbers after ± are the reported error.
BCHE: Cholinesterase (BCHE, Homo sapiens, UniProt P06276)
Chain of UniProt P06276 (whole entry, looked up): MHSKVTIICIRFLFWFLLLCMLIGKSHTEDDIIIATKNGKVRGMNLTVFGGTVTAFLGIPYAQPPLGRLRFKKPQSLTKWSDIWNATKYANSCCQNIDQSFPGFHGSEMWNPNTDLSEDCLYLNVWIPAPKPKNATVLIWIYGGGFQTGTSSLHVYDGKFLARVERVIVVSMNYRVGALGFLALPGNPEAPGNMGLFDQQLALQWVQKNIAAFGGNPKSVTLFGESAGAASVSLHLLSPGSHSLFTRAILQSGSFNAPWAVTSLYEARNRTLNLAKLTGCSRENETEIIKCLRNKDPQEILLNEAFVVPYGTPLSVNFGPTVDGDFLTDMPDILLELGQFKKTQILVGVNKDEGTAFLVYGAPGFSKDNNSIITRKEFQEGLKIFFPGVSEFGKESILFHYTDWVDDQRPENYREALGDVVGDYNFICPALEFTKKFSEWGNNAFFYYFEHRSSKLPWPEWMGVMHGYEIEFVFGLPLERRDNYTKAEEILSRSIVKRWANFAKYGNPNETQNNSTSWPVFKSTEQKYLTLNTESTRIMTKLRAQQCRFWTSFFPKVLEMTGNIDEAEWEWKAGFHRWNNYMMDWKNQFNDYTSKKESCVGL
Chain of UniProt Q13547 (whole entry, looked up): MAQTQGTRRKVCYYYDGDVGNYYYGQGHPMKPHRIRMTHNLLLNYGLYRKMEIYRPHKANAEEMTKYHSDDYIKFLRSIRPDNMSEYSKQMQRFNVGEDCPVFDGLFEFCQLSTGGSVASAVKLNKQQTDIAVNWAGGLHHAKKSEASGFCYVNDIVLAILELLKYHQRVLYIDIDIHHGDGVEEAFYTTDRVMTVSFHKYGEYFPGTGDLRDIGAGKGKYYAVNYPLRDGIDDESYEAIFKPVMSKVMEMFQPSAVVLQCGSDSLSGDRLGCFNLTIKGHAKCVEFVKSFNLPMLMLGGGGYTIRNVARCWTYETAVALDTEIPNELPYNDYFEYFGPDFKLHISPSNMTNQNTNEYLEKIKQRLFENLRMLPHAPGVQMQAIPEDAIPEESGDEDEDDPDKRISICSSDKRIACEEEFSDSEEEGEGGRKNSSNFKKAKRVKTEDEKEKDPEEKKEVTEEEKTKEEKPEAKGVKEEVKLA
Chain of UniProt O75385 (whole entry, looked up): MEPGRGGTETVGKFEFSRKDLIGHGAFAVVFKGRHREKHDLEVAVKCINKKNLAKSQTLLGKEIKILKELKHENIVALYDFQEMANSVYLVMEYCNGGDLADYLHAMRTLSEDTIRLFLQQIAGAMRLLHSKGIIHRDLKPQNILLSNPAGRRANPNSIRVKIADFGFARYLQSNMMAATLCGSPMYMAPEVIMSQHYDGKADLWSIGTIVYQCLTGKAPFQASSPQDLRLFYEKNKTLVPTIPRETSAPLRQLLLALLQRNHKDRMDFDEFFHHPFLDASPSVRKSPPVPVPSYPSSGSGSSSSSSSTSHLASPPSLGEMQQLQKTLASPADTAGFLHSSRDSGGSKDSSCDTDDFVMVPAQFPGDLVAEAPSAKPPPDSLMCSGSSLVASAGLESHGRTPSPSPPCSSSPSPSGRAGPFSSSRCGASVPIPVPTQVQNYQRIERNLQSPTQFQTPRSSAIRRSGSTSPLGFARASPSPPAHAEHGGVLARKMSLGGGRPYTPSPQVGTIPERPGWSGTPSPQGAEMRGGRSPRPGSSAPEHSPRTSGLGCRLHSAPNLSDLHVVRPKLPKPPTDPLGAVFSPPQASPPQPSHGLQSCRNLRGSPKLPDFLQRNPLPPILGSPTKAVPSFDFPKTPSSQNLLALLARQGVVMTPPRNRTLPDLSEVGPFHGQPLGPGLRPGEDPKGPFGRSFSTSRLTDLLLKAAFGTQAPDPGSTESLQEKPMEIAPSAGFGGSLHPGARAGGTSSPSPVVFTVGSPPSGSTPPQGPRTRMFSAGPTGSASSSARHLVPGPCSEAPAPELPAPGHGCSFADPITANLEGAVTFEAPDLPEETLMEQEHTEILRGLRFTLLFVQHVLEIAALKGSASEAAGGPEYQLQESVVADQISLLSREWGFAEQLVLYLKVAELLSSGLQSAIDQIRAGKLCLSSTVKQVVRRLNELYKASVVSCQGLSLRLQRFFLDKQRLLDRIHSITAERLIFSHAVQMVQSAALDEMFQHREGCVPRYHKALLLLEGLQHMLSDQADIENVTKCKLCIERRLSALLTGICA
Chain of UniProt Q6GMN2 (whole entry, looked up): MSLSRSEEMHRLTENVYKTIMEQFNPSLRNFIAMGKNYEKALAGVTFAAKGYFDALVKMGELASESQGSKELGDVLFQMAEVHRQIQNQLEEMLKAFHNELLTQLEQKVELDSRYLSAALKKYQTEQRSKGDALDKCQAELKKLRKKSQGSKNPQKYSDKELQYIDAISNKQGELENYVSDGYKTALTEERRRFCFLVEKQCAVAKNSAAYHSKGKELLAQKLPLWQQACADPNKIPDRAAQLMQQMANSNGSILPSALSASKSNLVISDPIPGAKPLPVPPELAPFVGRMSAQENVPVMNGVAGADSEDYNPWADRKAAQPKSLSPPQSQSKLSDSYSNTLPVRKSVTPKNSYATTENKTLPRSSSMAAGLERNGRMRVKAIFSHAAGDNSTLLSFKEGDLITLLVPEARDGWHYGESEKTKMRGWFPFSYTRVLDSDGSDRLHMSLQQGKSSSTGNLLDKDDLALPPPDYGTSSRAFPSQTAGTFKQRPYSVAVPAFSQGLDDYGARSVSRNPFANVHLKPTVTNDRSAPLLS
Chain of UniProt P17787 (whole entry, looked up): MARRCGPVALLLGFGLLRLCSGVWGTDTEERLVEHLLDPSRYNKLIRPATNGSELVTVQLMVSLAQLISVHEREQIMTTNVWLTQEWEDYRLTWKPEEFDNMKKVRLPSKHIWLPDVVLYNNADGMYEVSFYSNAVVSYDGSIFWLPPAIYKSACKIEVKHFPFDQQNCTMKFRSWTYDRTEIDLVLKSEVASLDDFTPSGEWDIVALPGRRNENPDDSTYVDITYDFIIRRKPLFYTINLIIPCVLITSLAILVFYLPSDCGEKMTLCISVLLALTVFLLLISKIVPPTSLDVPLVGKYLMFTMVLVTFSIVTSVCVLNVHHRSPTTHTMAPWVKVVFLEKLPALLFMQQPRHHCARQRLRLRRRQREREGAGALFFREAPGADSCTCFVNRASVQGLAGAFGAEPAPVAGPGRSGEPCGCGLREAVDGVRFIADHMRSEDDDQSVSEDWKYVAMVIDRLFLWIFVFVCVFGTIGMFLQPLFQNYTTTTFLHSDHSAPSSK
Chain of UniProt Q7Z602 (whole entry, looked up): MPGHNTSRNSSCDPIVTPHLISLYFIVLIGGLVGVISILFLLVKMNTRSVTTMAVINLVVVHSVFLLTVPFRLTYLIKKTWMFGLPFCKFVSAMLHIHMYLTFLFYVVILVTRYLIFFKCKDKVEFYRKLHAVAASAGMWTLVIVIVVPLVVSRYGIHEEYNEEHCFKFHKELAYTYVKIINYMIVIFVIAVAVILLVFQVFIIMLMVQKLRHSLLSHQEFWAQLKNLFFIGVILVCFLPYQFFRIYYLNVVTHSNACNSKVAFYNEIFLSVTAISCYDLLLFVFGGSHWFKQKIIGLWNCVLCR
Chain of UniProt P43681 (whole entry, looked up): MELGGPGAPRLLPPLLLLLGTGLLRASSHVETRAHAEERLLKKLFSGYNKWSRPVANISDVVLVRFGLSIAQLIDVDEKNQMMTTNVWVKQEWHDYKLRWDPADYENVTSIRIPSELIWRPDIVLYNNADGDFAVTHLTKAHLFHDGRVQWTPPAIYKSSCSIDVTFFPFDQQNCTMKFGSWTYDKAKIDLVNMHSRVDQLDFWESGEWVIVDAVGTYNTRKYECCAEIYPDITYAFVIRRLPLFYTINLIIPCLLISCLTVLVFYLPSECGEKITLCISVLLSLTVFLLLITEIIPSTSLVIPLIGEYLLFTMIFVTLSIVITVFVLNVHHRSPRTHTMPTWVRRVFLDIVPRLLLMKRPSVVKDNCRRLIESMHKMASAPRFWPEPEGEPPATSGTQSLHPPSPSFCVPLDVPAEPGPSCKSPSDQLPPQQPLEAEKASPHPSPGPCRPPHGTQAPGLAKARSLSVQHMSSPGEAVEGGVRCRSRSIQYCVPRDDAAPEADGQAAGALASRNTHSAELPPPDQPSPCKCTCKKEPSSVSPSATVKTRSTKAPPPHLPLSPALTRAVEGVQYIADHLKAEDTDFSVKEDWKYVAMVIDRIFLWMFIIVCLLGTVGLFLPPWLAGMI
Chain of UniProt Q92743 (whole entry, looked up): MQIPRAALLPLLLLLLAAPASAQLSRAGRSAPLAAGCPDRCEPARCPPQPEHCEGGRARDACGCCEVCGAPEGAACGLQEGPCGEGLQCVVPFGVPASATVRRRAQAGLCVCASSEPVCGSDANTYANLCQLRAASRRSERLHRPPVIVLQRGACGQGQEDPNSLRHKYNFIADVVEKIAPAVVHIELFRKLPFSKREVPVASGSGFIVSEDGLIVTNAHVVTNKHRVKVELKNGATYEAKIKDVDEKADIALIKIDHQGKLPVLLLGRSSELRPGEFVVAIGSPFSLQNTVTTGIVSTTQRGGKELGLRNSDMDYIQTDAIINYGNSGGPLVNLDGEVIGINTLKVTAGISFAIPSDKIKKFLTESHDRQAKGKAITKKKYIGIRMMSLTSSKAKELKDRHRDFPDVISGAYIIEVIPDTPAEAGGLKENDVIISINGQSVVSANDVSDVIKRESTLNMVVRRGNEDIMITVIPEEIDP

Structure (SMILES)	target or system	test	system	setting	scale	endpoint	value
CCCN(CCC)[C@H]1CCc2c(F)ccc(O)c2C1	Plasmodium falciparum	–	GB4	–	–	IC50	398 nM
O=C(Nc1cccnn1)N1CCC(=Cc2cccc(Oc3ccc(C(F)(F)F)cn3)c2)CC1	Abhydrolase domain-containing protein 11 (Rattus norvegicus, UniProt D3ZXK4)	probe labelling, inhibitor, competitive ABPP with azido-FP probe, refers to: Abhd11	rat brain soluble fraction	0.1 µM	–	inhibition	73%
Cl.Cl.Clc1ccccc1CNCC1CCC(CNCc2ccccc2Cl)CC1 (centres unmarked)	BCHE	inhibitor	–	Triton	–	efficacy	-90.8 ± 8.78%
O=C(c1ccc(Cl)cc1)N1CCN2C(=O)N(OC(=O)N3CCOc4ccccc43)C(=O)C2C1 (centres unmarked)	Serine protease HTRA1 (Homo sapiens, UniProt Q92743)	enzyme activity, inhibitor, MS-based ABPP	SW-620 conditioned medium	10 µM, 1 h, 37 °C	reference: compound over DMSO, lower = stronger inhibition	median ratio	1.48
COc1ccc(N2C(=O)N(c3c(C)cccc3Cl)Cc3cnc(Nc4ccc(C5CCN(C)CC5)cc4OC)nc32)nc1	ULK1 (Homo sapiens, UniProt O75385)	kinase activity	–	0.5 µM	–	inhibition	12%
CC(C)(C)C1CCN(C(=O)n2ncc(C(O)(c3ccccc3)c3ccccc3)n2)CC1	BCHE	–	–	concentration not given, Triton	–	efficacy	-67.9 ± 16.2%
CO[C@H]1C[C@@H]2CC[C@@H](C)[C@@](O)(O2)C(=O)C(=O)N2CCCC[C@H]2C(=O)O[C@H]([C@H](C)C[C@@H]2CC[C@@H](OC(=O)NCCOCCOCCOCCOCCOCCOCCOCCOCCC(=O)N3CCc4cc(Cn5nc(-c6ccc7oc(N)nc7c6)c6c(N)ncnc65)ccc4C3)[C@H](OC)C2)C[C@@H](O)[C@H](C)/C=C(\C)[C@@H](O)[C@@H](OC)C(=O)[C@H](C)C[C@H](C)/C=C/C=C/C=C/1C	–	phase 1 dose escalation, refers to: diarrhoea	advanced solid tumour patients	intravenous, 12 mg weekly, grade ≥3	–	TRAE incidence	0%
CC[C@H](C)[C@H](NC(=O)CNC(=O)[C@@H](N)CCCCN)C(=O)N[C@@H](CC(C)C)C(=O)N[C@@H](CCCCN)C(=O)N[C@@H](CCCNC(=N)N)C(=O)N[C@@H](CCC(=O)O)C(=O)N[C@@H](CCCCN)C(=O)N[C@@H](CCCNC(=N)N)C(=O)N[C@@H](CC(C)C)C(=O)N[C@@H](CCCNC(=N)N)C(=O)N[C@@H](CCCNC(=N)N)C(=O)N[C@@H](CCCCN)C(=O)N[C@@H](CC(N)=O)C(=O)N[C@H](C(=O)N[C@@H](Cc1c[nH]cn1)C(=O)N[C@@H](Cc1c[nH]c2ccccc12)C(=O)N1CCC[C@H]1C(=O)N[C@@H](CCC(=O)O)C(=O)N[C@@H](CCC(=O)O)C(=O)NCC(=O)N[C@@H](CCCCN)C(=O)N[C@@H](CC(C)C)C(=O)N[C@@H](CCCNC(=N)N)C(=O)N[C@@H](CCC(=O)O)C(=O)N[C@@H](Cc1ccc(O)cc1)C(=O)N[C@@H](Cc1ccccc1)C(=O)N[C@@H](Cc1ccc(O)cc1)C(=O)N[C@@H](Cc1ccccc1)C(=O)N[C@@H](CCC(=O)O)C(=O)N[C@@H](CC(C)C)C(=O)N[C@@H](CC(=O)O)C(=O)N[C@@H](CCC(=O)O)C(=O)N[C@@H](C)C(=O)N[C@@H](CCC(=O)O)C(=O)N[C@@H](CCCNC(=N)N)C(=O)N[C@H](C(=O)N[C@@H](CC(N)=O)C(=O)N[C@H](C(=O)O)C(C)C)C(C)C)C(C)C	HeLa and HEK-293T cells	phosphatase bead binding, competitive inhibitor, PIB pulldown iBAQ LC-MS/MS, refers to: SLMAP	–	concentration not given	reference: untreated control	log2 fold change	-0.0128
CN(C(=O)n1cnc(-c2ccc[n+]([O-])c2)c1)C1CCCCC1	glycine transporter, rat	binding	–	10 µM, added: [3H]glycine	–	inhibition	-9%
C[C@H]1CN(c2n[nH]c3nc(N[C@H]4CC[C@H](NS(=O)(=O)CCC(F)(F)F)CC4)ncc23)CCO1	HDAC1 (Homo sapiens, UniProt Q13547)	inhibitor, Kinobeads competition profiling	–	0.16 µM	reference: vehicle	relative abundance	1.06
CCCN(CCC)CCc1c[nH]c2ccccc12.Cl	BCHE	–	–	concentration not given, Triton	–	efficacy	-83.2 ± 2.46%
CN[C@]1(c2ccccc2Cl)CCCCC1=O	Neuronal acetylcholine receptor; alpha4/beta2 (Homo sapiens, UniProt P17787+P43681)	radioligand binding, agonist, radioligand displacement	–	30 µM	–	inhibition	-9%
O=C(NCCCCN1CCN(c2cccc(Cl)c2Cl)CC1)c1cc2ccccc2s1	BCHE	–	–	concentration not given, Triton	–	efficacy	-70 ± 11%
Oc1ccc2c3c1O[C@H]1[C@@H](O)CC[C@@]4(O)[C@@H](C2)N(CC2CCC2)CC[C@]314	Probable G-protein coupled receptor 141 (GPR141, Homo sapiens, UniProt Q7Z602)	β-arrestin recruitment, TANGO luminescence, refers to: GPR141	–	concentration not given	reference: basal luminescence	log2 fold change	0.541
CCOC(=O)Nc1ccc(NCc2ccc(F)cc2)nc1N	Plasmodium falciparum	–	HB3	–	–	IC50	2510 nM
CC[C@H](C)[C@H](NC(=O)[C@H](Cc1ccccc1)NC(=O)[C@H](CCC(=O)O)NC(=O)[C@H](CCCNC(=N)N)NC(=O)[C@H](C)NC(=O)[C@H](C)NC(=O)[C@H](CCC(N)=O)NC(=O)[C@H](CCC(=O)O)NC(=O)[C@H](CCC(=O)O)NC(=O)[C@H](CC(C)C)NC(=O)[C@H](Cc1ccc(O)cc1)NC(=O)[C@H](CO)NC(=O)[C@H](CO)NC(=O)[C@@H](NC(=O)[C@H](CC(=O)O)NC(=O)[C@H](CO)NC(=O)[C@@H](NC(=O)[C@H](Cc1ccccc1)NC(=O)[C@@H](NC(=O)CNC(=O)[C@H](CCC(=O)O)NC(=O)[C@H](C)NC(=O)CCc1c[nH]cn1)[C@@H](C)O)[C@@H](C)O)C(C)C)C(=O)N[C@@H](C)C(=O)N[C@@H](Cc1c[nH]c2ccccc12)C(=O)N[C@@H](CC(C)C)C(=O)N[C@H](C(=O)N[C@@H](CCCNC(=N)N)C(=O)NCC(=O)N[C@@H](CCCNC(=N)N)C(=O)N[C@@H](CCCCNC(=O)COCCOCCNC(=O)COCCOCCNC(=O)CC[C@H](NC(=O)CCCCCCCCCCCCCCCCC(=O)O)C(=O)O)C(=O)NCC(=O)NCC(=O)N[C@@H](CO)C(=O)N[C@@H](CCCCNc1c(NCCCCCN(O)C(=O)CCC(=O)NCCCCCN(O)C(=O)CCC(=O)NCCCCCN(O)C(C)=O)c(=O)c1=O)C(=O)O)C(C)C [zirconium-89 labelled]	–	–	rat, liver	iv, 3 nmol/kg, 4 h, ex vivo	–	tissue uptake	1.02 %ID/g
C[C@]1(O)CC[C@@]2(C)[C@@H](CC[C@@H]3[C@@H]2CC[C@]2(C)[C@@H]([N+](=O)[O-])CC[C@@H]32)C1	–	[3H]flunitrazepam binding	rat cerebral cortex homogenate	concentration not given	–	activity	inactive
O=C(Nc1cnccc1Cl)N1CCN(Cc2ccc3c(c2)OC(F)(F)O3)CC1	BAR/IMD domain-containing adapter protein 2 (Baiap2, Rattus norvegicus, UniProt Q6GMN2)	competitive ABPP with azido-FP probe, refers to: BAIAP2	rat brain membrane fraction	10 µM, unit not given	reference: DMSO	probe labelling	-2.1
Cc1c(NC(=O)c2cc3c(s2)CCCC3)cccc1-c1cn(C)c(=O)c(Nc2ccc(C3C(=O)N(C)CCN3C)cc2)n1 (racemic)	BCHE	–	–	concentration not given, Triton	–	efficacy	-59.4 ± 4.22%
Cc1sc2c(c1C)C(c1ccc(Cl)cc1)=N[C@@H](CC(=O)OC(C)(C)C)c1nnc(C)n1-2	W12E, differentiated	CUT&RUN-qPCR, refers to: HPV origin	–	–	–	53BP1 association	increased
